Experimental data of several laboratories.
Protocols differ between the studies behind these lines. ± gives the spread as reported.
Sample: plasma

Structure (SMILES) | assay | test system | setting | how to read | endpoint | value
CS(=O)(=O)c1ccc([C@@H](O)[C@@H](CF)NC(=O)C(Cl)Cl)cc1 |  | Arbor Acres chickens | oral, 20 mg/kg, added: quercetin 40 mg/kg pretreatment |  | AUC(0-t) | 43100 ± 1530 ng·h/mL
C[C@@](Cc1ccc(O)c(O)c1)(NN)C(=O)O |  | male Parkinson's disease patients | oral, dose not given, 3 h, median |  | AUC(0-t) | 84.9 ng·h/mL
CO[C@H]1CC[C@H](N2C(=O)CNc3ncc(-c4ccc(C(C)(C)O)nc4)nc32)CC1 |  | patients | oral, 7.5 mg, day 15, geometric mean |  | AUC(0-t) | 179 ng·h/mL
Oc1ccc([C@@H](O)c2cc(-c3ncnc4cc(N5CCOCC5)ccc34)c(F)cc2Cl)nn1 | geometric mean | healthy volunteers | oral, 100 mg, high-fat fed tablet |  | AUC(0-t) | 401 ng·h/mL
N#CCNC(=O)c1ccc(-c2ccnc(Nc3ccc(N4CCOCC4=O)cc3)n2)cc1 |  | healthy volunteers | added: rifampin single-dose | reference: with rifampin over alone | AUC(0-t) geometric mean ratio | 115%
C[C@@H](N)C1CCN(S(=O)(=O)c2cccc3cnccc23)CC1 |  | healthy volunteers, fasted | oral, 250 mg |  | AUC(0-t) | 76.5 ng·h/mL
COc1ccc([C@@H](O)c2cc(-c3ncnc4cc(N5CCOCC5)ccc34)c(F)cc2Cl)nn1 | mixed model | healthy volunteers | oral, 100 mg, high-fat fed tablet test arm |  | AUC(0-t) geometric LS mean | 1280 ng·h/mL
COc1nnc2ccc(N3CCC(c4ccc(OCCN5CCN(C)C(=O)[C@H]5C)cc4)CC3)nn12 |  | patients | oral, 10 mg once daily, multiple dose, monotherapy |  | AUC(0-t) | 0.364 µM·h
